{"data": "Published values collected from several papers", "note": "Numbered parts are unrelated; each lists some results of a single study. Substitutions count along the parent as printed."}
{"data": "Series 1", "target": "CCNF, cyclin fold, Cln2 fusion (human)", "technique": "yeast growth competition, sequencing", "matrix": "yeast", "setting": "weak parent motif", "baseline": "not given", "direction": "higher = stronger binding", "starting sequence": "PKN2 docking peptide (human); VSAVQKLDFSDTM"}
{"Variant": "VSAVQKLAFSDTM [D8A]", "normalised enrichment score": 0.569}
{"Variant": "VSAVQKQDFSDTM [L7Q]", "normalised enrichment score": -0.634}
{"Variant": "VSAVQKLDGSDTM [F9G]", "normalised enrichment score": -0.372}
{"Variant": "VSAVQKLDFSFTM [D11F]", "normalised enrichment score": 0.843}
{"Variant": "VSAVQGLDFSDTM [K6G]", "normalised enrichment score": 0.25}
{"Variant": "VSAVQKLDFSDTG [M13G]", "normalised enrichment score": 1.14}
{"Variant": "VSAVQKLDFSDTS [M13S]", "normalised enrichment score": 0.234}
{"Variant": "VSAVQKLDFSDTP [M13P]", "normalised enrichment score": -0.3}
{"Variant": "VSAVQKLDFSDTV [M13V]", "normalised enrichment score": 0.933}
{"Variant": "VSAVQKWDFSDTM [L7W]", "normalised enrichment score": -0.617}
{"Variant": "VSAVQKLDFSDVM [T12V]", "normalised enrichment score": 0.34}
{"Variant": "VSDVQKLDFSDTM [A3D]", "normalised enrichment score": -1.81}
{"Variant": "VSAVQKKDFSDTM [L7K]", "normalised enrichment score": 0.263}
{"Variant": "VSAMQKLDFSDTM [V4M]", "normalised enrichment score": 0.306}
{"Variant": "VSAVQKLDFSCTM [D11C]", "normalised enrichment score": 1.93}
{"Variant": "TSAVQKLDFSDTM [V1T]", "normalised enrichment score": 0.339}
{"Variant": "ASAVQKLDFSDTM [V1A]", "normalised enrichment score": 0.578}
{"Variant": "VSAEQKLDFSDTM [V4E]", "normalised enrichment score": -0.332}
{"data": "Series 2", "target": "Prothrombin, mature alpha-thrombin (F2, Homo sapiens, UniProt P00734)", "technique": "aptamer microarray, sandwich", "molecule type": "DNA with 2'F-ANA", "matrix": "in vitro", "tested at": "200 nM", "setting": "whole 15-mer aptamer, many near background", "added": "Cy3 exosite-II aptamer, 400 nM", "direction": "higher = stronger binding", "sequence": "GGTTGGTGTGGTTGG"}
{"Modification": "2'F-ANA at 1 2 6 7 8 10 11 13", "mean fluorescence intensity [a.u.]": 56.2}
{"Modification": "2'F-ANA at 2 3 5 6 8 9 10 12 15", "mean fluorescence intensity [a.u.]": 54.5}
{"Modification": "2'F-ANA at 1 3 9 10", "mean fluorescence intensity [a.u.]": 87.7}
{"Modification": "2'F-ANA at 1 2 4 5 10 11 13 14 15", "mean fluorescence intensity [a.u.]": 46.4}
{"Modification": "2'F-ANA at 3 4 10 12 15", "mean fluorescence intensity [a.u.]": 407}
{"Modification": "2'F-ANA at 2 4 6 9 10 12", "mean fluorescence intensity [a.u.]": 120}
{"Modification": "2'F-ANA at 4 8 9", "mean fluorescence intensity [a.u.]": 379}
{"Modification": "2'F-ANA at 4 6 8 12 13 14 15", "mean fluorescence intensity [a.u.]": 93.1}
{"Modification": "2'F-ANA at 1 5 9 12", "mean fluorescence intensity [a.u.]": 124}
{"Modification": "2'F-ANA at 2 3 4 5 6 8 9 10 11 13 15", "mean fluorescence intensity [a.u.]": 49.9}
{"Modification": "2'F-ANA at 1 3 4 5 6 7 15", "mean fluorescence intensity [a.u.]": 60.2}
{"Modification": "2'F-ANA at 2 3 4 5 7 8 9 10 13 15", "mean fluorescence intensity [a.u.]": 101}
{"Modification": "2'F-ANA at 2 6 7 9 12 13 14 15", "mean fluorescence intensity [a.u.]": 140}
{"Modification": "2'F-ANA at 3 5 9 13 14", "mean fluorescence intensity [a.u.]": 115}
{"Modification": "2'F-ANA at 1 7 9 10 11", "mean fluorescence intensity [a.u.]": 58.4}
{"Modification": "2'F-ANA at 3 5 6 8 9 10 13 14 15", "mean fluorescence intensity [a.u.]": 49.9}
{"Modification": "2'F-ANA at 1 2 3 4 5 7 9 10 12 13", "mean fluorescence intensity [a.u.]": 47.6}
{"Modification": "2'F-ANA at 2 3 5 8 9 10 11 12", "mean fluorescence intensity [a.u.]": 64}
{"Modification": "2'F-ANA at 1 4 5 8 11 12", "mean fluorescence intensity [a.u.]": 142}
{"Modification": "2'F-ANA at 3 5 8 12 15", "mean fluorescence intensity [a.u.]": 318}
{"Modification": "2'F-ANA at 2 5 6 8 9 10 12 13 14", "mean fluorescence intensity [a.u.]": 48.1}
{"Modification": "2'F-ANA at 3 7 9 10 14 15", "mean fluorescence intensity [a.u.]": 432}
{"data": "Series 3", "target": "Interferon regulatory factor 5, full length, phosphomimetic (IRF5, Homo sapiens, UniProt Q13568-2, residues 1-514, K96S/S451D/S453D/S456D/S462D)", "technique": "protein-binding microarray", "molecule type": "double-stranded DNA, one strand shown", "matrix": "in vitro", "tested at": "250 nM", "setting": "60-bp whole probe", "added": "salmon DNA 0.4 mg/ml", "baseline": "random background probes", "direction": "higher = stronger binding", "all sequences stand within": "GCCTAGCAC … GTCTTGATTCGCTTGACGCTGCTG"}
{"Sequence": "TCAAGGATGGTTTTCAGACTGTGCTAG", "log fluorescence": "0.0499 z-score"}
{"Sequence": "GACGATGTCAGTTCCGAGACGTGCTAG", "log fluorescence": "-0.135 z-score"}
{"Sequence": "TTAGGTTTTGGTTCCGGTTAGTGCTAG", "log fluorescence": "4.1 z-score"}
{"Sequence": "ATTGTCTTCCCCATCTTGTTGTGCTAG", "log fluorescence": "0.2 z-score"}
{"Sequence": "TCAGGTATAAACTTGGGACTGTGCTAG", "log fluorescence": "-0.261 z-score"}
{"Sequence": "TTAGGCTTCGGGTATCGGTTAGTGCTA", "log fluorescence": "3.49 z-score"}
{"Sequence": "GACGGACTGGACTTTCGGGGCGTGCTA", "log fluorescence": "2.73 z-score"}
{"Sequence": "GAGGATTTCAGACTGGAGACGTGCTAG", "log fluorescence": "-0.26 z-score"}
{"Sequence": "TCAGGGCTACCTCTCTTACTGTGCTAG", "log fluorescence": "-0.458 z-score"}
{"Sequence": "TTAGGTAACGGTCTCGGTTAGTGCTAG", "log fluorescence": "0.255 z-score"}
{"Sequence": "GACGGTTCCCTTTTCGTGACGTGCTAG", "log fluorescence": "0.647 z-score"}
{"Sequence": "TCCTCTCTCTATTCAGAGGAGTGCTAG", "log fluorescence": "0.504 z-score"}
{"Sequence": "TTAGGTATCCTTCTCCTTTCGTGCTAG", "log fluorescence": "1.04 z-score"}
{"Sequence": "TGTCTTTTCACTTTCTTTAAGTGCTAG", "log fluorescence": "4.31 z-score"}
{"Sequence": "TTACTTCCCAATTGTCTTTTCGTGCTA", "log fluorescence": "1.6 z-score"}
{"Sequence": "GATGGTATCGACTTTCGGGACGTGCTA", "log fluorescence": "7.23 z-score"}
{"data": "Series 4", "target": "TAR DNA-binding protein 43, full length, His tag (TARDBP, Homo sapiens, UniProt Q13148, residues 1-414)", "technique": "RNA Bind-n-Seq", "molecule type": "RNA", "matrix": "in vitro", "tested at": "20 nM", "setting": "6-mer, flanks averaged, single round", "added": "150 mM LiCl", "baseline": "input library", "direction": "higher = stronger binding"}
{"Sequence": "GAAGGA", "6-mer enrichment (R)": 1}
{"Sequence": "GGUUUG", "6-mer enrichment (R)": 1.36}
{"Sequence": "ACGCAG", "6-mer enrichment (R)": 0.874}
{"Sequence": "AUAGCU", "6-mer enrichment (R)": 0.848}
{"Sequence": "AGACAA", "6-mer enrichment (R)": 0.811}
{"Sequence": "AACUAG", "6-mer enrichment (R)": 0.841}
{"Sequence": "CAGGAC", "6-mer enrichment (R)": 0.92}
{"Sequence": "CAAUAG", "6-mer enrichment (R)": 0.876}
{"Sequence": "GUAGCC", "6-mer enrichment (R)": 0.972}
{"Sequence": "GGCAAA", "6-mer enrichment (R)": 0.952}
{"Sequence": "GAAAUA", "6-mer enrichment (R)": 0.87}
{"Sequence": "GCGAUU", "6-mer enrichment (R)": 0.906}
{"Sequence": "CGCGGU", "6-mer enrichment (R)": 1}
{"Sequence": "CGAACG", "6-mer enrichment (R)": 0.806}
{"Sequence": "ACGCAA", "6-mer enrichment (R)": 0.85}
{"data": "Series 5", "target": "ABI1, truncated, D143A, DHFR fusion (Arabidopsis thaliana)", "technique": "DHFR PCA, deep sequencing", "matrix": "yeast", "setting": "methotrexate growth selection, single substitutions", "added": "(+)-ABA 710 µM", "baseline": "wild-type fitted maximum", "direction": "higher = stronger binding", "starting sequence": "PYL1, truncated, DHFR fusion (Arabidopsis thaliana); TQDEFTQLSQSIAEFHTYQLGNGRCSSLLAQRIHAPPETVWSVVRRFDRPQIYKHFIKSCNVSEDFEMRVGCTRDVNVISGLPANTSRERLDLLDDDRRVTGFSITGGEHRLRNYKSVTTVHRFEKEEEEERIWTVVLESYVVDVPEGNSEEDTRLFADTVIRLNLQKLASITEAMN"}
{"Variant": "T39D", "relative binding score": "102%"}
{"Variant": "S26I", "relative binding score": "86.7%"}
{"Variant": "T86R", "relative binding score": "102%"}
{"Variant": "G107C", "relative binding score": "87.1%"}
{"Variant": "E129W", "relative binding score": "108%"}
{"Variant": "Q19N", "relative binding score": "102%"}
{"Variant": "C60A", "relative binding score": "99.2%"}
{"Variant": "R98H", "relative binding score": "109%"}
{"Variant": "P50M", "relative binding score": "-5.23%"}
{"Variant": "R113M", "relative binding score": "102%"}
{"Variant": "E127D", "relative binding score": "110%"}
{"Variant": "N149F", "relative binding score": "34.4%"}
{"Variant": "G71M", "relative binding score": "68.4%"}
{"Variant": "N61P", "relative binding score": "77.1%"}
{"Variant": "M68V", "relative binding score": "101%"}
{"data": "Mixed results"}
{"Substance": "PhoQ, residues 284 288 289 292 302 303 NLSRDF", "target": "PhoP, residues 12 14 15 18 19 LHSVQ (Escherichia coli, UniProt P23836)", "test": "Sort-seq, refers to: YFP reporter", "test system": "E. coli", "setting": "PhoQ-PhoP variant library, added: 10 µM Mg2+", "how to read": "baseline: high Mg2+ state, higher = stronger signaling", "measurement": "fold induction", "value": 10.4}
{"note": "A few entries again (series 5):"}
{"Variant": "C60A", "relative binding score": "99.2%"}
{"Variant": "R98H", "relative binding score": "109%"}
{"Variant": "P50M", "relative binding score": "-5.23%"}
{"Variant": "R113M", "relative binding score": "102%"}
{"Variant": "E127D", "relative binding score": "110%"}
{"Variant": "N149F", "relative binding score": "34.4%"}
{"Variant": "G71M", "relative binding score": "68.4%"}
{"Variant": "N61P", "relative binding score": "77.1%"}
